Measured values collected from several papers.
Numbers after ± are the reported error.
Melanocortin receptor 5: Melanocortin receptor 5 (Mus musculus, UniProt P41149)
ESRRG: Estrogen-related receptor gamma (ESRRG, Homo sapiens, UniProt P62508)
CFTR: Cystic fibrosis transmembrane conductance regulator (CFTR, Homo sapiens, UniProt P13569)
MBLAC2: MBLAC2 (Homo sapiens, UniProt Q68D91)

Structure (SMILES)	target	assay	test system	setting	scale	EC50 [nM]
O=C(Nc1cccc(C(F)(F)F)c1)c1ccccc1NC(=O)C1CCCCC1	Relaxin receptor 1 (RXFP1, Homo sapiens, UniProt Q9HBX9)	cAMP, agonist, TR-FRET	–	–	–	3700
CCCC[C@H](NC(=O)[C@H](CO)NC(=O)[C@H](Cc1ccc(O)cc1)NC(=O)[C@H](CO)NC(C)=O)C(=O)N[C@@H](CCC(=O)O)C(=O)N[C@@H](Cc1c[nH]cn1)C(=O)N[C@H](Cc1ccccc1)C(=O)N[C@@H](C)C(=O)N[C@@H](Cc1c[nH]c2ccccc12)C(=O)NCC(=O)N[C@@H](CCCCN)C(=O)N1CCC[C@H]1C(=O)N[C@H](C(N)=O)C(C)C	Melanocortin receptor 5	–	–	–	–	0.32 ± 0.09
O=C(COc1ccc(C2=[N+]3C(=Cc4ccc(-c5cccs5)n4[B-]3(F)F)C=C2)cc1)NCCCCCNC(=O)[C@H]1O[C@H](OP(=O)(O)OP(=O)(O)OCC2OC(n3ccc(=O)[nH]c3=O)C(O)C2O)[C@H](O)[C@@H](O)[C@@H]1O (stereo partly shown)	P2Y purinoceptor 14 (P2RY14, Homo sapiens, UniProt Q15391)	cAMP inhibition, agonist	CHO expressing human P2Y14	15 min, 37 °C, added: forskolin	–	0.96
O=C(NN=Cc1ccc2ccccc2n1)c1ccccc1	ESRRG	reporter gene, agonist, luciferase reporter	HEK293 transfected	–	–	836
Nc1ncnc2c1ncn2[C@@H]1O[C@H](COP(=O)(O)OP(=O)(O)OP(=O)(O)O)[C@@H](OC(=O)c2ccc(C(=O)c3ccccc3)cc2)[C@H]1O	P2X purinoceptor 7 (P2rx7, Mus musculus, UniProt Q9Z1M0)	agonist	mouse cells	–	–	197000 ± 5100
Nc1nc2ccc3cc4ccccc4cc3c2s1	Small conductance calcium-activated potassium channel protein 3 (Kcnn3, Mus musculus, UniProt P58391)	channel current, activator, patch clamp	mouse carotid endothelial cells, KCa3.1 knock-out	0.25 µM free Ca2+	–	1500
O=C(NN=Cc1ccccc1)c1ccccc1O	ESRRG	reporter gene, agonist, luciferase reporter	HEK293 transfected	–	–	468
CCCC[C@H](NC(=O)[C@H](CO)NC(=O)[C@H](Cc1ccc(O)cc1)NC(=O)[C@H](C)NC(C)=O)C(=O)N[C@@H](CCC(=O)O)C(=O)N[C@@H](Cc1c[nH]cn1)C(=O)N[C@H](Cc1ccccc1)C(=O)N[C@@H](CCCNC(=N)N)C(=O)N[C@@H](Cc1c[nH]c2ccccc12)C(=O)NCC(=O)N[C@@H](CCCCN)C(=O)N1CCC[C@H]1C(=O)N[C@H](C(N)=O)C(C)C	Melanocortin receptor 5	–	–	–	–	0.095 ± 0.01
Nc1ccc(I)cc1-c1nc2ccccc2n(Cc2ccccc2[N+](=O)[O-])c1=O	CFTR	ion flux, activator, fluorescence	–	–	–	> 25000
CCCC[C@H](NC(=O)[C@H](CO)NC(=O)[C@H](Cc1ccc(O)cc1)NC(=O)[C@H](CO)NC(C)=O)C(=O)N[C@@H](CCC(=O)O)C(=O)N[C@@H](Cc1c[nH]cn1)C(=O)N[C@@H](C)C(=O)N[C@@H](CCCNC(=N)N)C(=O)N[C@@H](Cc1c[nH]c2ccccc12)C(=O)NCC(=O)N[C@@H](CCCCN)C(=O)N1CCC[C@H]1C(=O)N[C@H](C(N)=O)C(C)C	Melanocortin receptor 5	–	–	–	–	25 ± 11
CC1=NN(CC(=O)Nc2ccc(Br)cc2)C(=O)CC1c1ccccc1 (racemic)	Formyl peptide receptor 2 (Mus musculus, UniProt O88536)	calcium signal, agonist	–	–	–	3500
CSCC[C@H](NC(=O)[C@H](CO)NC(=O)[C@H](Cc1ccc(O)cc1)NC(=O)[C@H](C)NC(C)=O)C(=O)N[C@@H](CCC(=O)O)C(=O)N[C@@H](Cc1c[nH]cn1)C(=O)N[C@@H](Cc1ccccc1)C(=O)N[C@@H](CCCNC(=N)N)C(=O)N[C@@H](Cc1c[nH]c2ccccc12)C(=O)NCC(=O)N[C@@H](CCCCN)C(=O)N1CCC[C@H]1C(=O)N[C@H](C(N)=O)C(C)C	Melanocortin receptor 5	–	–	–	–	46 ± 39
CCCCC[C@@](C)(O)[C@H]1CC[C@H]2[C@@H]3CC=C4C[C@@H](O)CC[C@]4(C)[C@H]3CC[C@@]21C	Protein smoothened (Smo, Mus musculus, UniProt P56726)	Hh pathway activation, agonist, refers to: Gli1 mRNA	Smo-null cells rescued with Smo	–	baseline: saturating SAG	26300
O=C(NO)c1cnc(NC2(c3ccccc3)CC2)nc1	MBLAC2	palmitoyl-CoA hydrolysis, inhibitor	–	added: [3H]palmitoyl-CoA	–	501
COc1ccc(Cl)cc1Cn1nc(-c2sc(NC(=O)C(C)(C)C)nc2C)cc1C(=O)NCCO	CFTR (Homo sapiens, UniProt P13569, del508-508)	iodide influx, corrector, YFP quenching	FRT expressing ΔF508-CFTR and YFP-H148Q/I152L	added: forskolin 20 µM + genistein 50 µM	–	3000
O=C(ON1C(=O)CCC1=O)c1cc(C(F)(F)F)cc(C(F)(F)F)c1	CD209 antigen (CD209, Homo sapiens, UniProt Q9NNX6)	binding, grating-coupled interferometry	mannose-PEG3 chip	overnight, Tris quench	–	30000
CC(=O)N[C@@H](CO)C(=O)N[C@@H](Cc1ccc(O)cc1)C(=O)N[C@@H](CO)C(=O)N[C@@H](C)C(=O)N[C@@H](CCC(=O)O)C(=O)N[C@@H](Cc1c[nH]cn1)C(=O)N[C@@H](Cc1ccccc1)C(=O)N[C@@H](CCCNC(=N)N)C(=O)N[C@@H](Cc1c[nH]c2ccccc12)C(=O)NCC(=O)N[C@@H](CCCCN)C(=O)N1CCC[C@H]1C(=O)N[C@H](C(N)=O)C(C)C	Melanocortin receptor 5	–	–	–	–	60 ± 55
Cc1[nH]c2ccccc2c1CCNCc1ccc(/C=C/C(=O)NO)cc1	MBLAC2	palmitoyl-CoA hydrolysis, inhibitor	–	added: [3H]palmitoyl-CoA	–	< 10
CSCC[C@H](NC(=O)[C@H](CO)NC(=O)[C@H](Cc1ccc(O)cc1)NC(=O)[C@H](CO)NC(C)=O)C(=O)N[C@@H](C)C(=O)N[C@@H](Cc1c[nH]cn1)C(=O)N[C@@H](Cc1ccccc1)C(=O)N[C@@H](CCCNC(=N)N)C(=O)N[C@@H](Cc1c[nH]c2ccccc12)C(=O)NCC(=O)N[C@@H](CCCCN)C(=O)N1CCC[C@H]1C(=O)N[C@H](C(N)=O)C(C)C	Melanocortin receptor 5	–	–	–	–	65 ± 85
Cn1c(=O)c(-c2ccccc2N)nc2ccccc21	CFTR	channel activation, activator, YFP halide sensor	FRT cells	approximate, added: 125 nM forskolin	–	> 25000
CSCC[C@H](NC(=O)[C@H](CCC(=O)O)NC(=O)[C@@H]1CCCN1C(=O)[C@@H](NC(=O)[C@@H]1CCCN1)[C@@H](C)O)C(=O)N[C@@H](CCCNC(=N)N)C(=O)N[C@@H](CCC(=O)O)C(=O)N[C@@H](CCCCN)C(=O)N[C@@H](CC(C)C)C(=O)N[C@H]1CSSC[C@@H]2NC(=O)[C@@H](NC(=O)[C@H](Cc3ccc(O)cc3)NC(=O)[C@H](CCCNC(=N)N)NC(=O)[C@H](C)NC(=O)[C@@H]3CCCN3C(=O)[C@H](CC(N)=O)NC(=O)[C@@H](NC(=O)[C@H](C)NC(=O)[C@H](C)NC(=O)[C@H](C)N)[C@@H](C)O)CSSC[C@H](NC(=O)CNC(=O)[C@H](CO)NC(=O)[C@H](CC(C)C)NC2=O)C(=O)N[C@@H]([C@@H](C)O)C(=O)N[C@@H](CCC(N)=O)C(=O)N[C@@H](CCC(N)=O)C(=O)N[C@@H](CC(=O)O)C(=O)N[C@@H](CC(C)C)C(=O)N[C@@H](CC(C)C)C(=O)N[C@@H]([C@@H](C)O)C(=O)N[C@@H](CC(C)C)C(=O)N[C@H](C(=O)N2CCC[C@H]2C(=O)N[C@@H](Cc2ccc(O)cc2)C(=O)O)CSSC[C@@H](C(=O)NCC(=O)NCC(=O)N2CCC[C@H]2C(=O)N[C@@H](CCCNC(=N)N)C(=O)N[C@@H](Cc2c[nH]c3ccccc23)C(=O)N[C@@H](CO)C(=O)N[C@H](C(=O)N[C@@H](CCC(=O)O)C(=O)N[C@@H](C)C(=O)O)[C@@H](C)O)NC(=O)[C@H](C(C)C)NC(=O)[C@H](CCCNC(=N)N)NC(=O)[C@H](C(C)C)NC(=O)[C@H](CC(C)C)NC(=O)[C@H](C)NC(=O)[C@H](CCCNC(=N)N)NC(=O)[C@H](C(C)C)NC(=O)[C@H](Cc2ccccc2)NC(=O)[C@H](Cc2c[nH]cn2)NC(=O)[C@H](Cc2c[nH]cn2)NC(=O)CNC1=O	Relaxin receptor 2 (RXFP2, Homo sapiens, UniProt Q8WXD0)	cAMP production, agonist, CAMYEL BRET	HEK293 transfected	45 min, 37 °C	–	0.263
CCCC[C@H](NC(=O)[C@H](CO)NC(=O)[C@H](Cc1ccc(O)cc1)NC(=O)[C@H](CO)NC(C)=O)C(=O)N[C@@H](CCC(=O)O)C(=O)N[C@@H](Cc1c[nH]cn1)C(=O)N[C@H](Cc1ccccc1)C(=O)N[C@@H](CCCNC(=N)N)C(=O)N[C@@H](Cc1c[nH]c2ccccc12)C(=O)NCC(=O)N[C@@H](CCCCN)C(=O)N1CCC[C@H]1C(=O)N[C@@H](C)C(N)=O	Melanocortin receptor 5	–	–	–	–	0.24 ± 0.04

For quick reference, copied from above:
Structure (SMILES)	target	assay	test system	setting	scale	EC50 [nM]
CCCC[C@H](NC(=O)[C@H](CO)NC(=O)[C@H](Cc1ccc(O)cc1)NC(=O)[C@H](CO)NC(C)=O)C(=O)N[C@@H](CCC(=O)O)C(=O)N[C@@H](Cc1c[nH]cn1)C(=O)N[C@H](Cc1ccccc1)C(=O)N[C@@H](CCCNC(=N)N)C(=O)N[C@@H](Cc1c[nH]c2ccccc12)C(=O)NCC(=O)N[C@@H](CCCCN)C(=O)N1CCC[C@H]1C(=O)N[C@@H](C)C(N)=O	Melanocortin receptor 5	–	–	–	–	0.24 ± 0.04
O=C(ON1C(=O)CCC1=O)c1cc(C(F)(F)F)cc(C(F)(F)F)c1	CD209 antigen (CD209, Homo sapiens, UniProt Q9NNX6)	binding, grating-coupled interferometry	mannose-PEG3 chip	overnight, Tris quench	–	30000
